Measured values from different studies.
Every numbered part comes from another study and shows a few of its results, in no order.

Block 1 — technique: protein-binding microarray; form: double-stranded DNA, one strand shown; sample: in vitro; concentration: not given; reading: higher = stronger binding
Target: Max-binding protein MNT, bHLH-zipper, MAX partner unstated (MNT, Homo sapiens, UniProt Q99583, residues 220-300)
Setting: k-mer, scored over probes, only values ≥0.25
Residues (chain): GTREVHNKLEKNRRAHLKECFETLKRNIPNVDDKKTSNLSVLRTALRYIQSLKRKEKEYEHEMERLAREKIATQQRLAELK
`AAAGCGTG` gave an E-score of 0.404.
With `CACGAGTG` the E-score was 0.382.
The E-score of `ACGCGCAG` is reported as 0.254.
`CAATGTGC` gave an E-score of 0.334.
The E-score of `CGTGACGC` is reported as 0.288.
With `ACGCGCCA` the E-score was 0.324.
For `ATCCACAT`, the E-score was 0.363.

Block 2 — technique: universal PBM; form: double-stranded DNA, one strand shown; sample: in vitro; concentration: 600 nM; reading: higher = stronger binding
Target: Sal-like protein 4, full length isoform A (SALL4, Homo sapiens, UniProt Q9UJQ4, residues 1-1053)
UniProt Q9UJQ4, sequence (whole entry, looked up): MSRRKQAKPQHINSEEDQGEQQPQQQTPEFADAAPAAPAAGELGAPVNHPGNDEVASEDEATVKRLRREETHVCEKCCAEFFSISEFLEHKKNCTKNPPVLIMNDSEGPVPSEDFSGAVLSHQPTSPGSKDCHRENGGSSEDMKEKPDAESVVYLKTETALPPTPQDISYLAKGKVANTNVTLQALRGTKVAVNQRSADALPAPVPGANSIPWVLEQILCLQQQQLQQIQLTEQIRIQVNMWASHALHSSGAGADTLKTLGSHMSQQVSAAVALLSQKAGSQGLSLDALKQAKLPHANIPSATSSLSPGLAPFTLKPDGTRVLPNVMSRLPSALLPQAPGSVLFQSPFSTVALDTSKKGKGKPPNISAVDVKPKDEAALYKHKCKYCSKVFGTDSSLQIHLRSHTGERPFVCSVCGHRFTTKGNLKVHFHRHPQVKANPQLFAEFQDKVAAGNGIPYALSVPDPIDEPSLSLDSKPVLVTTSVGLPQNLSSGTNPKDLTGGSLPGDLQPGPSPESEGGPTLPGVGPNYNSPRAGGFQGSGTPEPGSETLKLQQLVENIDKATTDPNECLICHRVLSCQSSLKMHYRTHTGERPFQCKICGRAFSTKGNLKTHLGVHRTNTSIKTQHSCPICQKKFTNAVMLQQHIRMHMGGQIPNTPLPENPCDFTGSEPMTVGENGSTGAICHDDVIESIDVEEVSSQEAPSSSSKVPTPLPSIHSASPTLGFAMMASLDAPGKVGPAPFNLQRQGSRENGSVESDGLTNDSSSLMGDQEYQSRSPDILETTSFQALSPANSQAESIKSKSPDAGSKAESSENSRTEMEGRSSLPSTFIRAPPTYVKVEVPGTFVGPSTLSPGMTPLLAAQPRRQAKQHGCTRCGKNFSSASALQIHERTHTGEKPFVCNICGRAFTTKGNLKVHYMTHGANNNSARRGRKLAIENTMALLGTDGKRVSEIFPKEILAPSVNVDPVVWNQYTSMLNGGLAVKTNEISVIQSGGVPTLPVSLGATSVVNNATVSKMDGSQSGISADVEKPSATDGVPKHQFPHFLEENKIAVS
Setting: 8-mer, flanks averaged, mean of replicates
The E-score of `CAGGGGCC` is reported as -0.368.
`ACCTTCAC` gave an E-score of -0.0608.
The E-score of `AGTTACGA` is reported as 0.114.
`TGACAGCA` gave an E-score of 0.0412.
With `ACATAGGT` the E-score was 0.163.
The E-score of `CAGACATC` is reported as -0.115.
`AATTTCCT` gave an E-score of 0.23.
With `GGATCCTA` the E-score was -0.107.
For `GCCAGCTA`, the E-score was -0.289.
The E-score of `ACCCTATG` is reported as 0.0221.
The E-score of `ATTTCGTA` is reported as 0.148.
For `ATGCTCAA`, the E-score was 0.0203.
`ATCTTCAA` has an E-score of 0.292.

Block 3 — technique: protein binding microarray; form: double-stranded DNA, one strand shown; sample: in vitro; concentration: not given; relative to: not given; reading: higher = stronger binding
Target: Histone acetyltransferase KAT6A, both winged helices, GST fusion (KAT6A, Homo sapiens, UniProt Q92794, residues 1-181)
Setting: 8-mer, flanks averaged, mean of 2 arrays, mostly near background
Construct (chain): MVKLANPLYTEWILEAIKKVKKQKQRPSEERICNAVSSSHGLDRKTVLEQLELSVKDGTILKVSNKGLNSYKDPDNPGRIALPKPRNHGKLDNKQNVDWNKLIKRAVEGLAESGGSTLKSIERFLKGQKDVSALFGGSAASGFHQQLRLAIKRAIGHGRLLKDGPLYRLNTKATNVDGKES
`CAGCCGAA` has an E-score of 0.0614.
`ACTGATGC` has an E-score of -0.075.
For `ATAACCAC`, the E-score was -0.108.
For `CGCCACCA`, the E-score was -0.00145.
With `CAACCATA` the E-score was -0.164.
The E-score of `CCCCGTTC` is reported as 0.116.
`GATACCTA` gave an E-score of -0.0561.
`GACAATCC` has an E-score of 0.0354.
The E-score of `GCGCGGCA` is reported as 0.358.
`TTAGCGAA` gave an E-score of 0.12.

Mixed results
With `PhoQ, residues 284 288 289 292 302 303 GTAMQF` the fold induction was 8.6 (PhoP, residues 12 14 15 18 19 QYFSL (Escherichia coli, UniProt P23836); Sort-seq, measured: YFP reporter; E. coli; PhoQ-PhoP variant library, added: 10 µM Mg2+; relative to: high Mg2+ state, higher = stronger signaling).

Excerpt of the above (block 2):
With `GGATCCTA` the E-score was -0.107.
For `GCCAGCTA`, the E-score was -0.289.
The E-score of `ACCCTATG` is reported as 0.0221.
The E-score of `ATTTCGTA` is reported as 0.148.
For `ATGCTCAA`, the E-score was 0.0203.
